Experimental data gathered from unrelated publications.
Lines come from different studies, so protocols differ. Several values in a cell are separate wells, animals, samples, runs or records. ± marks the error that the study gave.
UniProt Q8TD19, sequence (whole entry, looked up): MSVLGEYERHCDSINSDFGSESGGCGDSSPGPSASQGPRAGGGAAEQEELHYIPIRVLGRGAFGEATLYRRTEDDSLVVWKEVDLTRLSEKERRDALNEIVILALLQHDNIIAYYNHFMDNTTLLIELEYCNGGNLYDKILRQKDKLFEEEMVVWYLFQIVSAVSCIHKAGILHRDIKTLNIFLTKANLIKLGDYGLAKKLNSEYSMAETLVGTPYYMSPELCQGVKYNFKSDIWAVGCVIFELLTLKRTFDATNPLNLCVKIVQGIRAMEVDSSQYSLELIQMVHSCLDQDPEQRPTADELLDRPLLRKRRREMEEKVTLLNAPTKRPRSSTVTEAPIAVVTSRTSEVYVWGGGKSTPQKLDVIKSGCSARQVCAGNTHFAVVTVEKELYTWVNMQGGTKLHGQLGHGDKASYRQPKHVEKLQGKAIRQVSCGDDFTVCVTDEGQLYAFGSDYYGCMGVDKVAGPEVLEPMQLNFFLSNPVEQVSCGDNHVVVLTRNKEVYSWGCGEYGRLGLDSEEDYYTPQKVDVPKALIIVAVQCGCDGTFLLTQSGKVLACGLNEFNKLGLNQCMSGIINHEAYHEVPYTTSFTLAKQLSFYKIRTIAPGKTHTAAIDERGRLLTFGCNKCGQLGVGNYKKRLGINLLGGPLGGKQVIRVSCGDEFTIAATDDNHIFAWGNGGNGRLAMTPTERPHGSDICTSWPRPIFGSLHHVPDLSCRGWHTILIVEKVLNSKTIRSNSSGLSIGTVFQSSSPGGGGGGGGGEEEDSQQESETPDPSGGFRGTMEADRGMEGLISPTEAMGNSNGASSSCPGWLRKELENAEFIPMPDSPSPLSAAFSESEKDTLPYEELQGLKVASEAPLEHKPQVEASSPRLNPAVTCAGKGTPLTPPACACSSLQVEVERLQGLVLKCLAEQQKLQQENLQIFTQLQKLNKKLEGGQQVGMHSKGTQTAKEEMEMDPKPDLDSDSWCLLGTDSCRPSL

SMILES	target or system	assay	system	conditions	how to read	endpoint	value
N#Cc1ccc(Oc2ccc3c(c2)COB3O)cc1	PBMC	MSD	–	0.0001 µM, unit not given, added: PGE2	reference: DMSO	cAMP level difference	-0.783
CC(=O)c1c(O)c(C)c(O)c2c1OC1=CC(=O)C(C(C)=O)C(=O)C12C (single isomer, unassigned; (+))	hepatocytes, iPSC-derived, line L1	cell viability	–	24 h	–	IC50	15 µM
C=CCn1c(=O)c2cnc(Nc3ccc(N4CCN(C)CC4)cc3)nc2n1-c1ccc2c(n1)[C@@](O)(CC)CC2	Kuramochi	flow cytometry	–	concentration not given	–	S phase cells	33.7%
O=C(/C=C/C=C/C=C/C1CCCCC1)NC1=C[C@@](O)(/C=C/C=C/C=C/C(=O)NC2=C(O)CCC2=O)[C@@H]2O[C@@H]2C1=O	NCI-H1355	cell growth, CellTiter-Glo	–	78 h	–	GI50	28.7 µM
CCN(CC)S(=O)(=O)Nc1cccc(-c2ccc3c(NC(=O)C4CC4)n[nH]c3c2)c1	HEK293T	flow cytometry, measured: surface LRP6	–	concentration not given, 8 h, added: WNT3A	–	LRP6-positive cells	55.8% and 56.4%
O=C1[C@H]2CCCN2[C@H](c2cccc3c2OCO3)N1c1ccc(Cl)c(Cl)c1 (racemic)	PC-12, differentiated	–	–	50 µM, 4 days	–	mutant huntingtin-induced cytotoxicity	decreased
CCN1CCN(Cc2ccc(NC(=O)c3ccc(C)c(-c4ccc5nc(NC(=O)C6CC6)cn5n4)c3)cc2C(F)(F)F)CC1	MUTZ5 B-ALL cells	CellTiter-Glo	–	concentration not given, 3 d	–	cell proliferation	inhibited
Cc1cc(Nc2ncc(Cl)c(Nc3ccccc3S(=O)(=O)C(C)C)n2)c(OC(C)C)cc1C1CCNCC1	CLB-GE	phosphoproteomics LC-MS/MS, measured: HSF1 phosphorylation	–	200 nM, 60 min	reference: untreated	log2 fold change	-4.31
Cc1ccc(CNC(=O)Cn2cc(CSc3nc4ccccc4[nH]3)nn2)cc1	Caco-2	MTT	–	15.6 ppm	–	cytotoxicity	60%
O=C(Nc1c(Cl)cncc1Cl)c1ccc(OC(F)F)c(OCC2CC2)c1	PBMC	MSD	–	0.001 µM, unit not given, added: PGE2	reference: DMSO	cAMP level difference	-1.66
CCCN(c1ccc(OC)cc1)S(=O)(=O)C1CC2OC1C(c1ccc(O)cc1)=C2c1ccc(O)cc1 (stereo not drawn)	MCF7 3xERE-luc, steroid-deprived	ERE luciferase reporter, agonist	–	–	reference: vehicle	Emax	-6.6%
Cn1c(Nc2nc3ccc(C(F)(F)F)cc3s2)nc2cc(C(=O)NCCOCCO)ccc21	SH-SY5Y	RNA-seq, measured: DKK1 mRNA	–	5 µM, 5 h	reference: untreated cells	fold change	2.36
CN(C)c1ccccc1CN1CCCN(Cc2ccccc2N(C)C)C1c1ccncc1	Sufu-/- mouse embryonic fibroblasts	qRT-PCR, measured: Ptch1 mRNA	–	10 µM	reference: DMSO	inhibition	~50%
COc1ccc(-n2nc(C(C)=O)s/c2=N\N=C(/C)c2ccc(NC(=O)c3ccccc3)cc2)cc1	MCF7	–	–	1.25 µM	–	viability	2.72%
CC[C@@H]1[C@H](F)C(=O)N[C@@H]1COc1nccc2cc(C(N)=O)c(OC)cc12	Serine/threonine-protein kinase Nek9 (NEK9, Homo sapiens, UniProt Q8TD19)	ATP-site probe binding, ActivX profiling	THP-1 cell lysate	0.04 mM, Lys2 site	–	inhibition	5%
COCCOCCOCc1n(Cc2ccc3ccccc3n2)c2ccccc2[n+]1Cc1ccc2ccccc2c1	NSCLC cell lines	NCI60 one-dose screen	–	10 µM	–	mean growth percentage	12.4%
O=c1cc(-c2ccc(O)c(O)c2)oc2cc(O)cc(O)c12	Caco-2 monolayers	Western blot, measured: occludin, claudin-1, ZO-1	–	concentration not given	–	protein level	decreased
CCc1n(Cc2ccc3ccccc3n2)cc[n+]1Cc1ccc2ccccc2c1	NSCLC cell lines	NCI60 one-dose	–	10 µM, average over cell lines	–	growth	7.64 to 16%
C=CC1=C(C)c2cc3[n-]c(cc4nc(cc5[n-]c(cc1n2)c(C)c5C=C)C(C)=C4CCC(=O)O)c(CCC(=O)O)c3C.[Zn+2]	SH-SY5Y	RNA-seq, measured: TGFB1I1 mRNA	–	5 µM, 5 h	reference: untreated cells	fold change	1.6
C=CC(=O)N1CCC[C@@H](c2ccc(C(N)=O)c3[nH]ccc23)C1	TMD8 wild-type	calcium flux, FLIPR	–	4 h preincubation, added: anti-IgM	–	maximum inhibition	32.7%
COc1cc(C(=O)O[C@@H]2CCCOc3cc(cc(OC)c3OC)C(=O)NCCCN3CCCN(CC2)CC3)cc(OC)c1OC	CMV-specific PBMC	FluoroSpot	–	concentration not given, added: ATP, NLVPMVATV peptide restimulation	reference: control without ATP	granzyme B spot count	108% and 59.4% and 81.1%
CCn1cc(-c2cc(Cn3ccnc3)cc3c2CCN([C@H](c2cc(OC)ccn2)C2CC2)C3=O)c(C(F)(F)F)n1	RERF-LC-AI	cell growth, inhibitor	–	120 h	–	EC50	> 30 µM
COc1cc2ncnc(Nc3ccc(Oc4ccccc4)c(C)c3C)c2cc1OC.Cl	SW1417 (BRAF V600E)	cell viability	–	concentration not given, 72 h, added: trametinib	direction not given	Bliss synergy score	48.3%
COc1ncccc1CN[C@H]1[C@@H](C)[C@@H]1c1ccccc1 (relative stereo)	THP-1 wild type cells	MTS	–	72 h	–	GI50	> 50 µM

SMILES	target or system	assay	system	conditions	how to read	endpoint	value
COc1cnc2cccc(N3CCc4c(cc(Cn5ccnc5C)cc4-c4cn(C)nc4C(F)(F)F)C3=O)c2c1	SW1271	cell growth, inhibitor	–	120 h	–	EC50	> 30 µM
CC1(C)CCC(CN2CCN(c3ccc(C(=O)NS(=O)(=O)c4ccc(NCC5CCOCC5)c([N+](=O)[O-])c4)c(Oc4cnc5[nH]ccc5c4)c3)CC2)=C(c2ccc(Cl)cc2)C1	THP-1	annexin V/PI flow cytometry, measured: annexin V-/PI-	–	0.8 µM, 24 h	–	viable cells	94.1%
C[C@H]1CN(C2COC2)CCN1c1ccc(Nc2cc(-c3ccnc(N4CCn5c(cc6c5CC(C)(C)C6)C4=O)c3CO)cn(C)c2=O)nc1	TMD8 wild-type	calcium flux, FLIPR	–	1 h preincubation, added: anti-IgM	–	maximum inhibition	98.4%
Cc1c(CNC(=O)c2nn3c(c2Cl)N[C@@H](c2ccccc2)C[C@@H]3C(F)(F)F)cnn1C	MEF with TRE-FLAG-LMNB1	LMNB1 level, high-content screening	–	250 µM	–	maximum inhibition	0%
CCCCc1nc(Cl)c(CO)n1Cc1ccc(-c2ccccc2-c2nn[nH]n2)cc1	human PBMC	RNA-seq, measured: ELOVL7 mRNA	–	10 µg/mL, 24 h	reference: untreated control	log2 fold change	2.04
CCCc1n(Cc2ccc3ccccc3c2)c2ccccc2[n+]1Cc1ccc2ccccc2c1	NSCLC cell lines	NCI60 one-dose screen	–	10 µM	–	mean growth percentage	-30.7%
CC/C(=N\NC(=O)NCc1cccc(O)c1)c1ccc(O)c(C)c1O	SK-OV-3	Western blot, measured: YAP	–	10 µM, 3 h, 2D culture, unit not given	reference: β-actin	protein level	1.39 ± 0.25
c1ccc(-c2n(Cc3ccc4ccccc4c3)cc[n+]2Cc2ccc3ccccc3c2)cc1	NSCLC cell lines	–	–	10 µM, average over cell lines	reference: untreated	growth	-27%
[Cl-].[Cl-].[Os+2].c1cnc2c(c1)ccc1cccnc12.c1cnc2c(c1)ccc1cccnc12.c1cnc2c(c1)ccc1cccnc12	SK-MEL-28	resazurin	–	normoxia, added: green light 523 nm	reference: dark EC50 over light EC50	phototherapeutic index	2
c1cnc2c(c1)ccc1cccnc12	HEK293T	–	–	25 µg/mL	reference: albendazole	IL-4 mRNA level	decreased
CCCCN1C[C@H](O)[C@@H](O)[C@@H](O)[C@H]1CO	sample G patient fibroblasts	Gb3 level lowering, LC-MS/MS, measured: Gb3 d18:1/16:0	–	216 h	–	IC50	11.1 µM
Cc1cccc(-c2[nH]c(CNc3ccccc3F)nc2-c2ccc3ncnn3c2)n1	MM1.S	XTT	–	2 µM	–	viability	13% and 16% and 22%
COc1cc(/C=C/C(=O)N2CCC=CC2=O)cc(OC)c1OC	MDA-MB-468	quantitative RT-PCR, measured: NQO1	–	30 µM, 8 h	reference: untreated cells	mRNA level	149.2 ± 0.3%
Cc1ccc2c(c1)C(=O)[C@]1(O)CCN(c3ccc4nc(C)ccc4c3)C1=N2.Cl	murine cells	polysome RT-qPCR, measured: Myh9	–	concentration not given	–	polysomal mRNA increase	~50%
CC(C)NCC(O)c1ccc(O)c(O)c1 (stereo not drawn)	mouse ventricular cardiomyocytes	–	–	dose not given, 0.067 s	–	sarcomere length	1.8 µm
Cc1c(C(=O)O)ccc2c3n(nc12)[C@@H]1[C@H](C3)N(CC2CC2)[C@@]2(C(=O)Nc3cc(Cl)ccc32)[C@H]1c1cccc(Cl)c1F	SNU-719 (MDM2 non-amplified)	cell proliferation, alamarBlue	–	120 h	–	GI50	0.01 µM
CCn1cc(-c2cc(Cn3ccoc3=N)cc3c2CCN([C@@H](C)c2cc(OC)ccn2)C3=O)c(C(F)(F)F)n1	769-P	cell growth, inhibitor	–	120 h	–	EC50	0.12 µM
Cn1cc(-c2ccc(-c3cncc(Cl)c3N3CCC4(CCNC4=O)CC3)cc2)cn1	COLO 205	gene expression, microarray, measured: CDH11 mRNA	–	concentration not given, 6 h	reference: untreated cells	log2 fold change	2.28
C=CC(=O)N1CCC(Oc2cc3c(Nc4ccc(Cl)c(Cl)c4F)ncnc3cc2OC)CC1	NCI-H2073 EGFR ASV knock-in	cell proliferation, CellTiter-Glo	–	–	reference: knock-in over parental NCI-H2073	selectivity ratio	0.013
Nc1cccc2c1C(=O)N(C1CCC(=O)NC1=O)C2=O (stereo not drawn)	RPMI-8226	flow cytometry, measured: CD162	–	concentration not given	reference: comparator compound alone	surface marker level	186%
O=C(CCc1ccc(O)cc1)c1c(O)cc(O)cc1O	Caco-2 monolayers	–	–	100 µg/mL, 90 min onward	reference: 0 min value	TEER	120%
O=C(NCCc1c[nH]c2ccccc12)C(=O)c1c[nH]c2ccc(F)cc12	BxPC-3, MDA-MB-231, PC-3, HeLa, C4-2, HEK293T	MTT	–	100 µM	–	cytotoxicity	not toxic
CCCCCCOC(=O)[C@]1(O)C[C@@H]2O[C@@]1(C)n1c3ccccc3c3c4c(c5c6ccccc6n2c5c31)C(=O)NC4	SK-OV-3	ATP	2D monolayer culture	0.1 µM, 4 days	reference: untreated	relative cell number	131%
O=c1[nH]nc(OCCCc2ccc(Cl)cc2)c(NCc2cccnc2)c1Br	HEK293T	RNA-seq, measured: CARS mRNA	–	10 µM, 6 h	reference: vehicle	log2 fold change	0.763

Repeated from above:
SMILES	target or system	assay	system	conditions	how to read	endpoint	value
CC[C@@H]1[C@H](F)C(=O)N[C@@H]1COc1nccc2cc(C(N)=O)c(OC)cc12	Serine/threonine-protein kinase Nek9 (NEK9, Homo sapiens, UniProt Q8TD19)	ATP-site probe binding, ActivX profiling	THP-1 cell lysate	0.04 mM, Lys2 site	–	inhibition	5%
Cc1c(C(=O)O)ccc2c3n(nc12)[C@@H]1[C@H](C3)N(CC2CC2)[C@@]2(C(=O)Nc3cc(Cl)ccc32)[C@H]1c1cccc(Cl)c1F	SNU-719 (MDM2 non-amplified)	cell proliferation, alamarBlue	–	120 h	–	GI50	0.01 µM
O=c1[nH]nc(OCCCc2ccc(Cl)cc2)c(NCc2cccnc2)c1Br	HEK293T	RNA-seq, measured: CARS mRNA	–	10 µM, 6 h	reference: vehicle	log2 fold change	0.763
CCCc1n(Cc2ccc3ccccc3c2)c2ccccc2[n+]1Cc1ccc2ccccc2c1	NSCLC cell lines	NCI60 one-dose screen	–	10 µM	–	mean growth percentage	-30.7%
CCCCc1nc(Cl)c(CO)n1Cc1ccc(-c2ccccc2-c2nn[nH]n2)cc1	human PBMC	RNA-seq, measured: ELOVL7 mRNA	–	10 µg/mL, 24 h	reference: untreated control	log2 fold change	2.04
